Published values of several laboratories.
Numbered parts are unrelated; each lists some results of a single study.
Chain of UniProt Q9UF33 (whole entry, looked up): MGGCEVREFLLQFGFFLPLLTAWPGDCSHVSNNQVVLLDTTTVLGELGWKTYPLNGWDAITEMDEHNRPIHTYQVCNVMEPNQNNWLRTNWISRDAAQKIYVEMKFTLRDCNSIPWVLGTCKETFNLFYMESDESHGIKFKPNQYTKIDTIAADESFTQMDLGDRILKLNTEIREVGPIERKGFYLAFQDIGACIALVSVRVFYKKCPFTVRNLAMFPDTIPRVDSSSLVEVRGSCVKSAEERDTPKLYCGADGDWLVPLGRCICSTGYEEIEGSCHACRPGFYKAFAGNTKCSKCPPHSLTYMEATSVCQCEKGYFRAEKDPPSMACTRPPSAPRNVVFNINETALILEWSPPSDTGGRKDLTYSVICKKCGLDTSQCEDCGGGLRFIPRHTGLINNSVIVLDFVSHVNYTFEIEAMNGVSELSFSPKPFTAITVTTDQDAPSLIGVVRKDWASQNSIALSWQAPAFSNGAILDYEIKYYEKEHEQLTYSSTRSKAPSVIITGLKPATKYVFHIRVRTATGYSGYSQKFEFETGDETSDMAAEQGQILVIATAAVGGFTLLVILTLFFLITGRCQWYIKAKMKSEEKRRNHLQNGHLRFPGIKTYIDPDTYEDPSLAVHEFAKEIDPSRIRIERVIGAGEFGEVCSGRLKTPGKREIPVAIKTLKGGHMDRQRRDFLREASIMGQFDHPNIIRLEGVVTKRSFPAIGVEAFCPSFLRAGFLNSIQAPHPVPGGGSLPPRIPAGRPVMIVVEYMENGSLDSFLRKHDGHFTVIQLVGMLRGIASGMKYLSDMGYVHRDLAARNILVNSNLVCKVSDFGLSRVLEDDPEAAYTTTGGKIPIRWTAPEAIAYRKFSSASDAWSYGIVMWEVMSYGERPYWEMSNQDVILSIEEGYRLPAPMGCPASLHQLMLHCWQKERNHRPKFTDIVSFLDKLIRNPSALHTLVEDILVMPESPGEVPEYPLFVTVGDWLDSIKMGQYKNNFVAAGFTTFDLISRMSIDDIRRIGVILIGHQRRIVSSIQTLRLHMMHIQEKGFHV
Chain of UniProt P61075 (whole entry, looked up): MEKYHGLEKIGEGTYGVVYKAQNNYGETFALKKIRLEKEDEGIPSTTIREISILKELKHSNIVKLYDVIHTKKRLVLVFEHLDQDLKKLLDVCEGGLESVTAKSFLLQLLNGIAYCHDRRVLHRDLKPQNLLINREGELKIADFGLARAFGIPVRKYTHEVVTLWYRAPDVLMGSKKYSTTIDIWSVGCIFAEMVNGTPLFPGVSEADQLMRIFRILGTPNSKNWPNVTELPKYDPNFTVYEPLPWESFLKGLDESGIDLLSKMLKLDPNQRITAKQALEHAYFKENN
Chain of UniProt O14733 (whole entry, looked up): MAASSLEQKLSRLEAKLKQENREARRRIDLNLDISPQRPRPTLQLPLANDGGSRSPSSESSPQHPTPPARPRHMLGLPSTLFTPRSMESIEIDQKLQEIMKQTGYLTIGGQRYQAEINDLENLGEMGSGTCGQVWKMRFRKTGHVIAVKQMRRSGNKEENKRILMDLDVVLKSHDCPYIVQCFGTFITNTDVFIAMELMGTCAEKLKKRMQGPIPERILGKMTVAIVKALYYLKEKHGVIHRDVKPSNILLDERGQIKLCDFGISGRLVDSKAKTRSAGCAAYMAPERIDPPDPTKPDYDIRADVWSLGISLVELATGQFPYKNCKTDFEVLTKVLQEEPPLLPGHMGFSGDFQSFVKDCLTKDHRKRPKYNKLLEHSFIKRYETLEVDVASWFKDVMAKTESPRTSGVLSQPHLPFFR
Chain of UniProt Q96NX5 (whole entry, looked up): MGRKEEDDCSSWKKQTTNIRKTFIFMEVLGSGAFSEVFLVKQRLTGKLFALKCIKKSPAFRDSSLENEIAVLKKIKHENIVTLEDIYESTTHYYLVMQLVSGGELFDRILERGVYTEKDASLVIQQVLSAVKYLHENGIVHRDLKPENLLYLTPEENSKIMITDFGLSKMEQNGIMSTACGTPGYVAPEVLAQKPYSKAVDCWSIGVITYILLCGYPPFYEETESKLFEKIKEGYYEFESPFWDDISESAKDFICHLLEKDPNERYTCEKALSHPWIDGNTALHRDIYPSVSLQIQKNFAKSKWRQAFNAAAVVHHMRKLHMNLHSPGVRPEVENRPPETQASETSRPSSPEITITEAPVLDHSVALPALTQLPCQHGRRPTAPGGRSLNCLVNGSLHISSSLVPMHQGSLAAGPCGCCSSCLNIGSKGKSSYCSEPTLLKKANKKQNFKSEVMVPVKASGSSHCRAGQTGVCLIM
Chain of UniProt Q6PHR2 (whole entry, looked up): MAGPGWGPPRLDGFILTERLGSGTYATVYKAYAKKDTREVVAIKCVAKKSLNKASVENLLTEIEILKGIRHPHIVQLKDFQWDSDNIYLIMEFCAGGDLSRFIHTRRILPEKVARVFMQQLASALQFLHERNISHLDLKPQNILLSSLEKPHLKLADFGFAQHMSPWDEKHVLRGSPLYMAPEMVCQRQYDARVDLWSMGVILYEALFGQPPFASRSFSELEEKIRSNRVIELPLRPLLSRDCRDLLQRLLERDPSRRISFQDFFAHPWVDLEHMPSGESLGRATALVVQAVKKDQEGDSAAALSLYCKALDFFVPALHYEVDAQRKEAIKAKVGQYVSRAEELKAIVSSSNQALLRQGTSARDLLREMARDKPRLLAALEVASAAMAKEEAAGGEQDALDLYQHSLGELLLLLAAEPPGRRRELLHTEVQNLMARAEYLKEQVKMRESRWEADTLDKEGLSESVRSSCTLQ
Chain of UniProt P62344 (whole entry, looked up): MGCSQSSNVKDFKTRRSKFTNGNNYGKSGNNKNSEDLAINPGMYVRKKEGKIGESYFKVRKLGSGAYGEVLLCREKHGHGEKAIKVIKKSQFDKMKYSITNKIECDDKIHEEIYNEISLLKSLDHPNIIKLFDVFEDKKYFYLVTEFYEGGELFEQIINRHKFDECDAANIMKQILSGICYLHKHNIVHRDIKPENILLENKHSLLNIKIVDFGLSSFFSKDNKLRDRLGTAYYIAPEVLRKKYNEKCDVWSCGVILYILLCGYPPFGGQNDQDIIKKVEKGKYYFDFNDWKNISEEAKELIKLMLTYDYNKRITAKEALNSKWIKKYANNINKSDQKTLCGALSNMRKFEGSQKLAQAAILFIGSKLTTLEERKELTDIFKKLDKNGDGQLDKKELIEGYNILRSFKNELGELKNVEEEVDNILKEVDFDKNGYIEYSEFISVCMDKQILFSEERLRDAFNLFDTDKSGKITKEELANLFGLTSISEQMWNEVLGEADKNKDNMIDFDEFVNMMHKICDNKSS
Chain of UniProt Q9P0L2 (whole entry, looked up): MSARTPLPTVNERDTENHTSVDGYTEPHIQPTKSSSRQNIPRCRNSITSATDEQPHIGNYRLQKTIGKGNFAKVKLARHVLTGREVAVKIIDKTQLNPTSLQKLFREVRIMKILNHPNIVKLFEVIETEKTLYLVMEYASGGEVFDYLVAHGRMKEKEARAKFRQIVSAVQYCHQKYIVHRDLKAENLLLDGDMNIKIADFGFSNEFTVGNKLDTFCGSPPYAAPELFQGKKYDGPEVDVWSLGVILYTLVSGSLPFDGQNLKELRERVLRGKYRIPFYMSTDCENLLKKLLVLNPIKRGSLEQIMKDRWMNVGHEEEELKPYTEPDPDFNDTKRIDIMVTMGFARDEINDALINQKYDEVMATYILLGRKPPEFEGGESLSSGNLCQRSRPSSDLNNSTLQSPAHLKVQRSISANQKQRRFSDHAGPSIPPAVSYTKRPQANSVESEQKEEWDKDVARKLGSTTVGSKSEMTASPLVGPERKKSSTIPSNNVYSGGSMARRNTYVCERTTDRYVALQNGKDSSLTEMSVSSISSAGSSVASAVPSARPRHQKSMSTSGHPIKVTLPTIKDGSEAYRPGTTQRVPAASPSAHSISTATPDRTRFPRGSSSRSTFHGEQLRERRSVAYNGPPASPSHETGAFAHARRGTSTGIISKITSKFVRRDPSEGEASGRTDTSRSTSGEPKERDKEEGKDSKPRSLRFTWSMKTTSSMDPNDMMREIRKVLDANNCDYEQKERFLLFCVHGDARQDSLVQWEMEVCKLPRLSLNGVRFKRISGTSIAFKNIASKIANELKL
Chain of UniProt Q96SB4 (whole entry, looked up): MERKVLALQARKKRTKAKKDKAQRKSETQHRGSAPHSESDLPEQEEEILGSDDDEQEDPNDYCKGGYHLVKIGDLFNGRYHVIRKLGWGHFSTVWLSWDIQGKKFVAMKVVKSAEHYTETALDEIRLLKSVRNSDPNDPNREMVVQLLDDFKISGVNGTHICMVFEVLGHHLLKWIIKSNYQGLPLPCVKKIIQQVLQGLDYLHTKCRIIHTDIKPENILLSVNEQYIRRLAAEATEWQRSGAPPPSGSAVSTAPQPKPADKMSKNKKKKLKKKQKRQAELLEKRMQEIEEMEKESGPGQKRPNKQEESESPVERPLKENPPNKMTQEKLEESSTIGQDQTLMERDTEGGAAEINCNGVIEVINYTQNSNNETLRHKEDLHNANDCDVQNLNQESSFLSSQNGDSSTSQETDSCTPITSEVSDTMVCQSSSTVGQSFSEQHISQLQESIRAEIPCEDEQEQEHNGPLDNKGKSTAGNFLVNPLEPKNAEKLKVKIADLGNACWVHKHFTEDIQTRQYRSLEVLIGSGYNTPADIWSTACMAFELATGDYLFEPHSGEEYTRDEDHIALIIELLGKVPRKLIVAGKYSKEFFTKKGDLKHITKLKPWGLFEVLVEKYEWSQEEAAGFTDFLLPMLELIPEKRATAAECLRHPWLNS
Chain of UniProt P22612 (whole entry, looked up): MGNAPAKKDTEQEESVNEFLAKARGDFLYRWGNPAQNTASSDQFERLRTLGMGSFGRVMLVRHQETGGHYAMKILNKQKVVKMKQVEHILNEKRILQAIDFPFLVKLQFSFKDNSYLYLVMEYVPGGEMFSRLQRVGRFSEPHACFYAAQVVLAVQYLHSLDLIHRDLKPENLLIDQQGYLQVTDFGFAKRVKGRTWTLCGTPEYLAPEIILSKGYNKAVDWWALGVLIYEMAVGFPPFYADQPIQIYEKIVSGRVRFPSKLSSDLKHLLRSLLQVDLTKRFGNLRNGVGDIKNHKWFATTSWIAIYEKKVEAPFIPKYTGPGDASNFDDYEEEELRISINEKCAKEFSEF

Study 1 — read-out: cell-free assay; tested at: 0.5 µM
SMILES: O=C1NC(=O)c2cc(Nc3ccc(F)cc3)c(Nc3ccc(F)cc3)cc21
target	remaining signal
NUAK family SNF1-like kinase 2 (NUAK2, Homo sapiens, UniProt Q9H093)	112%
Ephrin type-A receptor 6 (EPHA6, Homo sapiens, UniProt Q9UF33)	66.8%
Calcium/calmodulin-dependent protein kinase type 1G (CAMK1G, Homo sapiens, UniProt Q96NX5)	106%
cAMP-dependent protein kinase catalytic subunit gamma (PRKACG, Homo sapiens, UniProt P22612)	101%
Ribosomal protein S6 kinase beta-2 (RPS6KB2, Homo sapiens, UniProt Q9UBS0)	93.9%
Lymphokine-activated killer T-cell-originated protein kinase (PBK, Homo sapiens, UniProt Q96KB5)	88.4%
Mitogen-activated protein kinase kinase kinase 14 (MAP3K14, Homo sapiens, UniProt Q99558)	117%
Serine/threonine-protein kinase ULK3 (ULK3, Homo sapiens, UniProt Q6PHR2)	96.3%
Dual serine/threonine and tyrosine protein kinase (DSTYK, Homo sapiens, UniProt Q6XUX3)	95.6%
Serine/threonine-protein kinase VRK1 (VRK1, Homo sapiens, UniProt Q99986)	93%
Myosin-IIIb (MYO3B, Homo sapiens, UniProt Q8WXR4)	98.2%
Calcium/calmodulin-dependent protein kinase type 1B (PNCK, Homo sapiens, UniProt Q6P2M8)	97.3%

Study 2
Compound: CC(C)n1cnc(-c2ccc(F)cc2)c1-c1ncc(C(=O)Nc2ccc(N3CCN(C)CC3)cc2)[nH]1
technique	refers to	species	route	dose	notes	patients with adverse event [%]
–	any adverse event, grade 4	idiopathic pulmonary fibrosis patients	oral	30 mg once daily	–	0
Phase 2a trial	hypoalbuminaemia	human, idiopathic pulmonary fibrosis	–	60 mg once daily	grade 4	0
–	any adverse event, grade 4	idiopathic pulmonary fibrosis patients	oral	60 mg once daily	–	0
–	abnormal liver function test, grade 1	idiopathic pulmonary fibrosis patients	oral	30 mg once daily	–	0
–	ALT increase	patients with idiopathic pulmonary fibrosis	–	30 mg twice daily	trial, without standard of care	0
Phase 2a trial	hypertriglyceridaemia	human, idiopathic pulmonary fibrosis	–	60 mg once daily	grade 1	0
Phase 2a trial	haemorrhoids	human, idiopathic pulmonary fibrosis	–	all compound arms	grade 5	0
Phase 2a trial	eosinophilia myalgia syndrome	human, idiopathic pulmonary fibrosis	–	60 mg once daily	grade 2	0
Phase 2a trial	respiratory, thoracic, mediastinal disorders	human, idiopathic pulmonary fibrosis	–	30 mg once daily	grade 5	0
Phase 2a trial	hypertriglyceridaemia	human, idiopathic pulmonary fibrosis	–	60 mg once daily	grade 5	0
Phase 2a trial	blood urea increased	human, idiopathic pulmonary fibrosis	–	60 mg once daily	grade 3	0
Phase 2a trial	blood urea increased	human, idiopathic pulmonary fibrosis	–	30 mg once daily	grade 5	0
Phase 2a trial	blood glucose increased	human, idiopathic pulmonary fibrosis	–	30 mg once daily	grade 3	0

Study 3 — read-out: cell-free assay; technique: competition with immobilised ligand; tested at: 1 µM
SMILES: COc1ccc2c(c1)O[C@H](c1ccc(OC)c(OC)c1)C[C@@H]2NC(=O)C1(c2ccc3c(c2)OC(F)(F)O3)CC1
target	remaining binding [%]
Ephrin type-A receptor 5 (EPHA5, Homo sapiens, UniProt P54756)	100
ALK tyrosine kinase receptor (ALK, Homo sapiens, UniProt Q9UM73, C1156Y)	100
Mitogen-activated protein kinase 15 (MAPK15, Homo sapiens, UniProt Q8TD08)	100
Receptor-type tyrosine-protein kinase FLT3 (FLT3, Homo sapiens, UniProt P36888, D835Y)	100
Ephrin type-A receptor 6 (EPHA6, Homo sapiens, UniProt Q9UF33)	100
Atypical kinase COQ8A, mitochondrial (COQ8A, Homo sapiens, UniProt Q8NI60)	100
Megakaryocyte-associated tyrosine-protein kinase (MATK, Homo sapiens, UniProt P42679)	100
Serine/threonine-protein kinase mTOR (MTOR, Homo sapiens, UniProt P42345)	100
Aurora kinase A (AURKA, Homo sapiens, UniProt O14965)	100
Serine/threonine-protein kinase WNK2 (WNK2, Homo sapiens, UniProt Q9Y3S1)	85
Serine/threonine-protein kinase 17B (STK17B, Homo sapiens, UniProt O94768)	100
Serine/threonine-protein kinase Nek6 (NEK6, Homo sapiens, UniProt Q9HC98)	100
Dual specificity mitogen-activated protein kinase kinase 7 (MAP2K7, Homo sapiens, UniProt O14733)	100
Myotonin-protein kinase (DMPK, Homo sapiens, UniProt Q09013)	94
Serine/threonine-protein kinase D3 (PRKD3, Homo sapiens, UniProt O94806)	100
Inhibitor of nuclear factor kappa-B kinase subunit epsilon (IKBKE, Homo sapiens, UniProt Q14164)	96

Study 4 — read-out: binding; tested at: 1 µM
Structure (SMILES): COc1ccc2[nH]c3c4[nH]c5ccc(OC)cc5c4c4c(c3c2c1)C(=O)NC4=O
target	technique	remaining binding [%]
Serine/threonine-protein kinase MARK1 (MARK1, Homo sapiens, UniProt Q9P0L2)	–	100
Cyclin-dependent kinase-like 2 (CDKL2, Homo sapiens, UniProt Q92772)	competition with immobilised ligand	92
Dual specificity tyrosine-phosphorylation-regulated kinase 2 (DYRK2, Homo sapiens, UniProt Q92630)	–	50
Wee1-like protein kinase (WEE1, Homo sapiens, UniProt P30291)	competition with immobilised ligand	53
SRSF protein kinase 1 (SRPK1, Homo sapiens, UniProt Q96SB4)	–	86
Serine/threonine-protein kinase DCLK1 (DCLK1, Homo sapiens, UniProt O15075)	competition with immobilised ligand	90
Serine/threonine-protein kinase DCLK2 (DCLK2, Homo sapiens, UniProt Q8N568)	–	90
Serine/threonine-protein kinase PRP4 homolog (PRPF4B, Homo sapiens, UniProt Q13523)	–	97
TGF-beta receptor type-1 (TGFBR1, Homo sapiens, UniProt P36897)	competition with immobilised ligand	100
Calcium-dependent protein kinase 1 (CDPK1, Plasmodium falciparum, UniProt P62344)	–	29
Phosphatidylinositol 3-kinase catalytic subunit type 3 (PIK3C3, Homo sapiens, UniProt Q8NEB9)	–	80
Cyclin-dependent kinase 2 homolog (CRK2, Plasmodium falciparum, UniProt P61075)	–	82
Serine/threonine-protein kinase D1 (PRKD1, Homo sapiens, UniProt Q15139)	–	68
Uncharacterized serine/threonine-protein kinase SBK3 (SBK3, Homo sapiens, UniProt P0C264)	–	100

A few entries again (study 2):
technique	refers to	species	route	dose	notes	patients with adverse event [%]
–	any adverse event, grade 4	idiopathic pulmonary fibrosis patients	oral	30 mg once daily	–	0
Phase 2a trial	hypoalbuminaemia	human, idiopathic pulmonary fibrosis	–	60 mg once daily	grade 4	0
–	any adverse event, grade 4	idiopathic pulmonary fibrosis patients	oral	60 mg once daily	–	0
–	abnormal liver function test, grade 1	idiopathic pulmonary fibrosis patients	oral	30 mg once daily	–	0
